Results collected from several papers.
Numbered parts are unrelated; each lists some results of a single study.

Series 1
Target: Sal-like protein 4, full length isoform A (SALL4, Homo sapiens, UniProt Q9UJQ4, residues 1-1053)
UniProt Q9UJQ4, sequence (whole entry, looked up): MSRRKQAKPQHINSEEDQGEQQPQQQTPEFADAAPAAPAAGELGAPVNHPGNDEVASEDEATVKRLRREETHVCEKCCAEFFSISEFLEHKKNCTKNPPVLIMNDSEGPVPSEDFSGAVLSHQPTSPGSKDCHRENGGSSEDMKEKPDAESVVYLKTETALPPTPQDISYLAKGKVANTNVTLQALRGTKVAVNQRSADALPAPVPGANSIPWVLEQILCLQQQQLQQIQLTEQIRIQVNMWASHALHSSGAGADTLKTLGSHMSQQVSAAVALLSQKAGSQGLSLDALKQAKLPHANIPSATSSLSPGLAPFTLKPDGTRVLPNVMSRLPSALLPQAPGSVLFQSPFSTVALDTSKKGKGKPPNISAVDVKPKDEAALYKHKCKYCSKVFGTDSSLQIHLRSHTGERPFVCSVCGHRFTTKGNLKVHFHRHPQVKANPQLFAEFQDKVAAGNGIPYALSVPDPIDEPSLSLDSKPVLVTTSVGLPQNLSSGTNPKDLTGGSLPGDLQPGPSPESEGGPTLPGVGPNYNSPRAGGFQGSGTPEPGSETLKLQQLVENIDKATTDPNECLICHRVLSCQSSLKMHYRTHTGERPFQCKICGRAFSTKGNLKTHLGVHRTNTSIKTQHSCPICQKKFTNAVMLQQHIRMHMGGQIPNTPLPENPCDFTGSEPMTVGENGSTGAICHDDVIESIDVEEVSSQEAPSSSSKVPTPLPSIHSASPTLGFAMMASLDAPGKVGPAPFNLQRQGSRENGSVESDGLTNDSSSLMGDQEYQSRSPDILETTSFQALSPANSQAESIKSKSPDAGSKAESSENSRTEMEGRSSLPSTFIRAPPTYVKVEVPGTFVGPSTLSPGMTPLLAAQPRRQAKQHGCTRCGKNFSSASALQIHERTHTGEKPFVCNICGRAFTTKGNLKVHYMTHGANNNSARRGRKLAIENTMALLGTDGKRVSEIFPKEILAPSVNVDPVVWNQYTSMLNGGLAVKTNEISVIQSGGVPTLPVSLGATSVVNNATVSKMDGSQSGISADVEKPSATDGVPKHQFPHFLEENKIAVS
Method: universal PBM
Molecule type: double-stranded DNA, one strand shown
Medium: in vitro
Concentration: 600 nM
Notes: 8-mer, flanks averaged, mean of replicates
Reading: higher = stronger binding
Oligonucleotide	E-score
GGCCGCGA	-0.35
ATTCAATG	0.201
AAATGAAG	0.224
GCGGCTCC	-0.407
CAACTTCC	-0.155
ATCCCAAC	-0.07
CCGTTGAA	-0.0325
CAAGCAAG	-0.152
AAAGTGAA	0.233
GCCTCTCC	-0.266
AAAGGCCC	-0.18
ACCTCCTC	-0.122
ACGCTCTA	-0.186
CATTCCAA	0.0696
CTAGCTTA	0.0926
ATCGTGCA	0.0169
CCCGCGGA	-0.284
CTGCCTTC	-0.128
GCATTGCC	-0.119
CTGTCTTA	0.106

Series 2
Target: Interferon regulatory factor 5, full length, phosphomimetic (IRF5, Homo sapiens, UniProt Q13568-2, residues 1-514, K96S/S451D/S453D/S456D/S462D)
Method: protein-binding microarray
Molecule type: double-stranded DNA, one strand shown
Medium: in vitro
Concentration: 250 nM
Notes: 60-bp whole probe
Together with: salmon DNA 0.4 mg/ml
Baseline: random background probes
Reading: higher = stronger binding
All sequences stand within: GCCTAGCAC … GTCTTGATTCGCTTGACGCTGCTG
Oligonucleotide	log fluorescence
GACGGACTGGACACTGGGAACGTGCTA	-0.66 z-score
GACGGACTGCGTCTCCTGACGTGCTAG	-0.832 z-score
TCACATTTTAGTTTTCAACTGTGCTAG	1.35 z-score
TCAAGTTTCCATTTTCAACTGTGCTAG	2.33 z-score
TTAGGACTGGGGTATCGGATAGTGCTA	0.334 z-score
GACGATTTCGTGTTTCGAGACGTGCTA	2.93 z-score
TACGGTATCGGTTTCGGGACGTGCTAG	8.42 z-score
TCATCATTGCCTATTTTTCAGTGCTAG	1.01 z-score
TTAGGTTCGGGTTTCGGTTAGTGCTAG	7.94 z-score
GACGGTTTCGACACTGGGAACGTGCTA	4.98 z-score
GACGATATAAGTATCGAGACGTGCTAG	2.19 z-score
GTAGGTTCCCTTTTCCTTTAGTGCTAG	0.379 z-score
GAAGATTTCAGTATCGAGACGTGCTAG	3.85 z-score
CAGTTTATTTATTTTTACATGTGCTAG	1.06 z-score
TTAGGTCTCATTCTCCTTTAGTGCTAG	0.0405 z-score
GACGATCTCTGTCTCGAGACGTGCTAG	-0.129 z-score
TGAGATTTCAGTATCGATTAGTGCTAG	7.79 z-score
TTAGGACTTCTACTGCTTTAGTGCTAG	0.127 z-score
ATTTTTATCAAATGTGGGATTGTGCTA	0.768 z-score

Series 3
Target: RNA binding protein fox-1 homolog 2, RRM domain, GST-SBP tag (RBFOX2, Homo sapiens, UniProt O43251-10, residues 100-194)
Method: RNA Bind-n-Seq
Molecule type: RNA
Medium: in vitro
Concentration: 365 nM
Notes: natural RNA segment, single round, ends assumed
Baseline: no-protein control
Reading: higher = stronger binding
All sequences stand within: GGGAGUUCUACAGUCCGACGAUC … UGGAAUUCUCGGGUGCCAA
Target sequence (chain): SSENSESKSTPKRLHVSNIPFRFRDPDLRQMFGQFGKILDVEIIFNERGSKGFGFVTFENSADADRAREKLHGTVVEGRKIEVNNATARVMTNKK
Oligonucleotide	RBNS enrichment (R)
AUUGACAAAUUAAGAUGUUAAUUUUUAUCGAUGUGAUUUGUAAUUAAGAUAUUUUGAUUUCAAUAACAAAAAUAAUACAAGAGUUUAAUCUGUGGAUUAUGUUCCUGAUC	0.424
CUGAUAGUUGUUGGGAAUAUAUAAUUUACUGGACCUCAGCCCAAAUCAAGAUGCUUAAAAUUGUACUUGUGGAGCUUCACUCAAACCAAUGUGUCAAAUAACGUAUUGAA	0.617
AACACUUUUAGAGAUCCUCUGUAGAAAGUCACAGGAAAGAGAAAGAUAUUGUUCAGCUUGAGUUGGGUCAUGCCAAACAGUCAUUUAUUUGGUGGGUAGAAAUACAGUCA	13.2
AUUUUCUAUAGUAAUCUGUUGUACAUUUUAAGAAGUAAAACUAGGAAUUUAGGAGUGAUGUGUGACAUUUCUGACAUGGAGUUACCAUCCCCACAUGUAUCACAUACUGU	0.461
CUAUUCAGGCCCACUGGGAGUUAGGAAGUAUAAGUAAGCCAAGAGAAGUCAGCCCCUGCCCAGAAGAUCUGAAACUAAUAGUAGGAGUUUCCCCAGAAGUCAUUUUCAGC	0.581
UUAAAGCAAGGAAAAGUGUAACUGAAACACUGCACUUUACUGUUUUAUACUUUUGUACAUAUGAGAAAUCAAGGGAUUAGUGCAACCAGUAGAAAGCAUUGAAAUGACUG	0.717
CAAUCUGGCAUCCCCACGAUGCCUCUGGAGAGAUGGCCUUGAUUGCCCCUCAAAGCCACCUGAACCGUCGUCAACUUACCCAGCCUGUCUCCAUUAAACACCAGGAACCA	0.359
CCCCAUAACCAAACAUAAGCUAGCUAGUCUUGUCUAAUAGAUGGGAUUUACUAUAGGUGAAGAUAGCCCUCAUAUUCAAGGACAGAAGCUCUGGCAGGAGUAAAUUAGCA	20.4

Series 4
Target: Fragile X messenger ribonucleoprotein 1, C-terminal low-complexity region (Fmr1, Mus musculus, UniProt P35922)
Method: RNA Bind-n-Seq
Molecule type: RNA
Medium: in vitro
Concentration: 200 nM
Notes: whole 134-nt RNA, ends assumed
Together with: 150 mM LiCl
Baseline: input library
Reading: higher = stronger binding
Library: 7-deaza-guanosine replaces G
All sequences stand within: GGGAGUUCUACAGUCCGACGAUC … UGGAAUUCUCGGGUGUCAAGG
Oligonucleotide	log2 enrichment
UGGCCCGCCGUCCUGAGGAAGCUGAGGUUCACUGCGGUGCCCAAGAACCACCAGGCGGUCCGGAACCCGUGAGCGGCUGCCAGGGGCUCU	-0.0683
AGUCCUGUGCUACACAUCGUAUGUACCGAAUCGGUUUUUGGUUUUUGGGUUUUUGGGAAAGUAUUAUGUUACGCCGUUCGGAUCUGCACU	-1.88
ACCAUGCAGAAAGGCAUCUUUGGGAAGUGGGGCAAGGGGGGGAUAGGGAGGGGGGUAACACUUUGGGAACAGGUGGUCCCAGGUCGUUUC	1.23
ACCAUGCAGGUGGGCAUCUUUGGGAAGUGGGGCAAGGGGGGGAUAGGGAGGGGGGUAACACUUUGGGAACAGGUGGUCCCAGGGCGUUUC	0.796
UGGCCCUGGUGGCAUGCGGGGAGGAAGAGGUGGCCUCAUGGAUCGUGGUGGUCCCGGUGGAAUGUUCAGAGGUGCCCGUGGUGGAGACAG	-0.366
AGUCCUGUGCUACACAUCGUAUGUACCGAAUCGGGUUUUUUUGGGUGGGUUUUUGGGAAAGUAUUAUGUUACGCCGUUCGGAUCUGCACU	-1.74
UAAUUGUGAUCUACAUUUUAAAAUAUCAAGAGAUCGUCUCAGUGCUUCUUCCCUUACAAUGGAGAGUUUUGCUUUUCUUUGGGCUGGAGG	-2.89
UCCUGUGCUACACAUCGUAUGUACCGAAUCGGGCCCCCGGGGCCCCCGGGCCCCCGGGGAAAGUAUUAUGUUACGCCGUUCGGAUCUGCA	-2.68
